Experimental data pooled from the literature.
Parts stem from different laboratories: compare values within a part only. Several values in a cell are separate wells, animals, samples, runs or records. Substitutions count along the parent as printed.

Study 1 — target: CRIPT, C-terminal peptide; technique: DHFR complementation, deep sequencing; matrix: yeast; baseline: wild type; direction: higher = weaker binding; endpoint: binding free energy change
Notes: single substitutions, model-inferred values
Starting sequence: ERBIN, PDZ domain 1 (human); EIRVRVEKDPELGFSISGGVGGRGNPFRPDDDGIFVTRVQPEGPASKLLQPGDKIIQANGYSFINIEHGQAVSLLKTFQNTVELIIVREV; partner TKNYKQTSV
L12R: 4.15 kJ/mol
I56F: 0.57 kJ/mol
L49C: -1.24 kJ/mol
R88W: 3.64 kJ/mol
V20A: -0.714 kJ/mol
F78K: 1.06 kJ/mol
E11Y: -1.76 kJ/mol
L49A: -0.872 kJ/mol

Study 2 — target: CCNA1, cyclin fold, Cln2 fusion (human); technique: yeast growth competition, sequencing; matrix: yeast; notes: strong parent motif; baseline: not given; direction: higher = stronger binding; endpoint: normalised enrichment score; starting sequence: viral docking peptide; TSVRRALFTGGSD
V3I: 0.982
T9M: 0.932
R5H: 0.463
T9I: 0.706
A6L: -0.0693
R5E: -0.255
V3P: 0.134
V3S: -0.142
R5V: 0.277
T1A: 0.817
F8K: -0.111
G11A: 0.8
V3T: 0.782
S12A: 0.702
V3G: -0.291
R5G: 0.23
T9A: 0.767
L7F: -0.157
S12Q: 1.36
S2L: 0.914
T9W: 0.55
R4W: -0.236
T9E: 1.17
F8C: -0.0331
S12C: 1.09

Study 3 — technique: RNAcompete; molecule type: RNA; matrix: in vitro; tested at: 20 nM; notes: 7-mer, probes averaged, single round; baseline: mean of 7-mers; direction: higher = stronger binding; endpoint: 7-mer Z-score
Target: PABPC1L2, full length, GST fusion (mouse, UniProt A0ABA7IW68)
Target sequence (chain): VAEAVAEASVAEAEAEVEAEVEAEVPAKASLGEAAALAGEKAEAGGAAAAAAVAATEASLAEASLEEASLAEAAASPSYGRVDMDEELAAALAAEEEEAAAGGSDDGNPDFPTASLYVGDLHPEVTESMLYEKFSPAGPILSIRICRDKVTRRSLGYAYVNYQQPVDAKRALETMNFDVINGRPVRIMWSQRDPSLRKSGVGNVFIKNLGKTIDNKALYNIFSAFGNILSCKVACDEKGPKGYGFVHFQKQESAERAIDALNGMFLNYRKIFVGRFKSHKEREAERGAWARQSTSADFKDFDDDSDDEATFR
GGUCAAC: -0.00652
UGGGGCC: 0.0623
AGACUGC: -0.162
CCUGCCC: -0.423
GUUGUUU: -0.478
AAGGCAU: 0.343
AGGGCUC: 0.354
ACGCGGA: 0.117

Study 4 — technique: RNA Bind-n-Seq; molecule type: RNA; matrix: in vitro; tested at: 1 µM; notes: whole 134-nt RNA, ends assumed; with: 150 mM KCl; baseline: input library; direction: higher = stronger binding; endpoint: log2 enrichment
Target: Ras GTPase-activating protein-binding protein 1, C-terminal RGG region (G3BP1, Homo sapiens, UniProt Q13283)
Sequence of UniProt Q13283 (whole entry, looked up): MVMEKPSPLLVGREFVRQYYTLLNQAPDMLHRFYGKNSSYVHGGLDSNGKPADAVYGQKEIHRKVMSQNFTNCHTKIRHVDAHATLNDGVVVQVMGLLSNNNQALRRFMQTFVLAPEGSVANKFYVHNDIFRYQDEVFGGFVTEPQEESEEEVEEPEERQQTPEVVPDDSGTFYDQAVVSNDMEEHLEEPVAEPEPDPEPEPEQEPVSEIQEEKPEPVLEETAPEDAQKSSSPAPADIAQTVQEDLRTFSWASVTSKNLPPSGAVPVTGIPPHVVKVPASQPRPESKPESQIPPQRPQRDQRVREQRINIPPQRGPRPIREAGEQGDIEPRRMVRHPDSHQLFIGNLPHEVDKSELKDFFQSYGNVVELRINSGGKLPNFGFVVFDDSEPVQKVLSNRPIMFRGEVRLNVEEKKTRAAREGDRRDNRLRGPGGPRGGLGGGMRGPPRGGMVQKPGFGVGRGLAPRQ
All sequences stand within: GGGAGUUCUACAGUCCGACGAUC … UGGAAUUCUCGGGUGUCAAGG
CACAGACAACACGAAACCACACAGACACAGAGGGAAGGGGUUGGGAUGGGGACAGGGUGCACAGCAGGGCGGGGUAGGACCCCAGCCCCU: -0.358
CAAGUCCUGUGCUACACAUCGUAUGUACCGAAUCGGGUGGGAGGGUUUUUUUGGGAAAGUAUUAUGUUACGCCGUUCGGAUCUGCACUUC: 1.07
UCCUGUGCUACACAUCGUAUGUACCGAAUCGGGGUUUUUUGGUUUUUUGGGGUUUUUUGGAAAGUAUUAUGUUACGCCGUUCGGAUCUGC: -0.627
ACCAUGCAGGUGGGCAUCUUUGGGAAGUGGGGCAAGGGGGGGAUAGGGAGGGGGGUAAAACUUUGGGAACAGGUGGUCCCAGGUCGUUUC: -1.37
AGUCCUGUGCUACACAUCGUAUGUACCGAAUCGGGGAAAAAGGGGAGGGGUUUGGGGAAAGUAUUAUGUUACGCCGUUCGGAUCUGCACU: 1.34
UCAAGUCCUGUGCUACACAUCGUAUGUACCGAAUCGGAGGAAAAAAAGGUUUGGAAAGUAUUAUGUUACGCCGUUCGGAUCUGCACUUCC: -1.58
GCAGGAAGUAAAAACAAAUGAAAAUGCUUCGGAUAGUGGCAGGGGUGGGGGUUGCUAAGGAAAGGGUGGGAUGGGAGUGGGUAAAGAGUU: 1.73
UCAAGUCCUGUGCUACACAUCGUAUGUACCGAAUCGGAAAGGAAAGGGGAAAGGAAAGUAUUAUGUUACGCCGUUCGGAUCUGCACUUCC: -1.49

Single results of other studies
HTR2A: 5-hydroxytryptamine receptor 2A (HTR2A, Homo sapiens, UniProt P28223)
Sequence of UniProt P28223 (whole entry, looked up): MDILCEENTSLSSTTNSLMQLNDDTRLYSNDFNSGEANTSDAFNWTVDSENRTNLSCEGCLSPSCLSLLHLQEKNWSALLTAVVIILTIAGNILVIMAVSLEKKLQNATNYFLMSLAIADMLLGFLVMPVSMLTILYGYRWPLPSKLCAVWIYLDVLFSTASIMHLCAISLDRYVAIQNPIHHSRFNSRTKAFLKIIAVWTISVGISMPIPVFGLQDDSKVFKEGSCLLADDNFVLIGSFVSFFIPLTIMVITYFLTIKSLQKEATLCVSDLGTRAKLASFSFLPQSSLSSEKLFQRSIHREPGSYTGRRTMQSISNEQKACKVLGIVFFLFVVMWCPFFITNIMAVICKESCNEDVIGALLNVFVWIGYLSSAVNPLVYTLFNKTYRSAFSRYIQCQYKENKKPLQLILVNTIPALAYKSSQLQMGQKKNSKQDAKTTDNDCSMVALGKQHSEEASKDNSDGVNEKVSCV
CC[C@H](CC(=O)O)n1c(=O)c2ncccc2n(Cc2cn(C)c3cc(C)cc(C)c23)c1=O — inhibition (HTR2A; ligand displacement; 10 µM): 0.22%
CC(C)S(=O)(=O)c1cc2c(Nc3ccc4sc(C5CCCC5)nc4c3)ccnc2cc1OCCO — cell survival (HT-29; necroptosis, CCK-8; 0.37 µM, with: TNF-α, Smac mimetic, z-VAD): 89.6% and 84.1% and 88%
CC(C)(O)c1cncc(-c2nc3ccc(F)cc3n2C2CC2)c1 — inhibition (HTR2A; binding, radioligand binding; 10 µM): -0.31%
